Published values of several laboratories.
Each numbered part is a random draw from the data of one study; scales do not carry over between parts.

Series 1 — technique: EMSA with sequencing; form: double-stranded DNA, one strand shown; matrix: in vitro; tested at: 10 and 20 nM; reference: negative control set to 0; direction: higher = stronger binding
Target: Hepatocyte nuclear factor 3-alpha (Foxa1, Mus musculus, UniProt P35582, residues 1-468, full length assumed)
Sequence of UniProt P35582 (whole entry, looked up): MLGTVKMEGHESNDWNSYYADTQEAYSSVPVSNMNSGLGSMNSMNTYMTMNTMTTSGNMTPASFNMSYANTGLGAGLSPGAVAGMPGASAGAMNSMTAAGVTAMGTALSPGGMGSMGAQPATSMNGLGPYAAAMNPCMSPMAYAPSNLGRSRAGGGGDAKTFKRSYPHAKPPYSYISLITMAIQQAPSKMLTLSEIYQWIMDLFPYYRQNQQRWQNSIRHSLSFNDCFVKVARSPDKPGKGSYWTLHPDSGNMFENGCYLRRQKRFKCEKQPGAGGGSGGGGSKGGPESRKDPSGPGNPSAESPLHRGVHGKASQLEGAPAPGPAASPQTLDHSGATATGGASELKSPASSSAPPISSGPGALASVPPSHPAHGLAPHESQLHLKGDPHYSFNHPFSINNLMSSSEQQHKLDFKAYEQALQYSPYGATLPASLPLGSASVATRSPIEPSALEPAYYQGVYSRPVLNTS
Setting: whole designed probe, mean of two concentrations, ends assumed
Oligonucleotide	normalised bound fraction [ratio]
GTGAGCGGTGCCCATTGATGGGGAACTAAGTACTGCTATTTTATTTTTTACCATAAAAGAGTTGTGTACACACACACAGTGTGCTTGTGCAAATATACTACACAGACACAAGTGTGGCTTATTTACCCTTGTGAAGTAAGTTATTTGAAAGAAAACATTGCCTTATTCACATTGTATCTCCTACAATGTGTTGTGCATAATGAAACAATAAATATTTATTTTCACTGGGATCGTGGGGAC	0.443
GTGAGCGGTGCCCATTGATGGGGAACGCTGTCAGCCTCTTCTCCGTGGTGTTTTCTTGGAGCAAGTCCAAAGCAAAATCCTGATGCAAACAGTAACTATGGTTGTACATTGTTAAGTTGTATTTACTTTTTTGAATAGATAACGTTTACACGATCAAGATTCAGAATGTACCAAAAGTCCCCCAGTTGTCAGTTTTCCTCTCTGGAAATATACAGGAGGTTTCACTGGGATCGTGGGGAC	0.291
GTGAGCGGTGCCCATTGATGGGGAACGGAAGCTGAACTAGGCAGTGGGTCCCCAGGGATGGTGGGAAGTGACGAGGGCTCAGGGATCTGCCCACTTACTCTTTATTTGCAAACAGTATGTAATCTCACATGCAAGCTGTCACTGCCCTCAGGGCGCTGGCATGCTGCCACCCCAGCCCCTGGATCCTGGTGCTTGGGCGCCTTGGCTTTATAGCATTTGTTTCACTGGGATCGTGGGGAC	0.173
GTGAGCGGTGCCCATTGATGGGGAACGAATTATTTCATTATACAAATATAAATGTCATTCTTTAATTTTAGAAGAAATCATGATATGTCATTCTATTGAGTGCTAACTAAAAGTTCCCTTTGTTTACTTAGCTTTCTCTTAGTCATAAGAAAGAAGAAGATCTCTTGCGTGAAAACAGCGTGTTGCAGGAAGAAATTGCCATGCTAAGACTGGAACTAGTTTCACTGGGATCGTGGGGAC	0.51
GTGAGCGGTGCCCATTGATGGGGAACACATTCTTTTTGTAATTATTCCAGGTCAAGATAGTGGCCAAAGAGGAAGTTATAAAGCAGACTAGGAAATTCTCCTAAATATATCTCCAACAGAGTAATCTAGAGATTAGGAAACTTGTCCTTCATTCAATTACACCTGGTAAACTTTTTACATTTCCCATTCTATTTTTTGCCTGTGATGTCTAAGTTGAATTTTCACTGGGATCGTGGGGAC	-0.072
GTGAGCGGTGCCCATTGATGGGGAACAGCATTAACTCAAGCTGTTAGAATCAAGAATCCTAAGGAAAACAGATAGAAATAAATTACTGTATAAAATAGAAATGACTATATTGAAATAAGTAATCTTGGAATAACTAAATATTTTTCAAATAAATTATTAGTGGGCCTATGAGGAAAATAAGGAAAAAGCAATATAAATAAAAAGCAAATAAATAAAACTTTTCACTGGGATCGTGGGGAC	0.423
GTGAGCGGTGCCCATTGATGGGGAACATCTTCCCCCTCTTCCTTGCCCCACCAGCTCACCTACGGGGGTTATTTGCAGATAGGAAAATAAATAAAGCCGGCATTCGTTAACGCAGTTCTGGCGCAAACTGCTGTTTGCTCTGCATGAATCATGGTCCTTACGCGAGGCGTGGCTCCGGGAGAGCAAAGCACCGTGTCAGGCGCATGATCCGGGGTGGCCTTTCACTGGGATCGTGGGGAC	0.356
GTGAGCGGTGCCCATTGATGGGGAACAGTTCAGAATAGTATTTCTACTGAATGTGTATTGTTTTACCCATCCTAAAGTTGAAGAATCACAAGTCAAACCATCATAAGTCCAGGATTATTTGTTTATATATCTTGTAGGGAAGGGAAAAGTGAAAGGAAATAATGTTCTTTCTACCCTTCTACATTATTGGCTGGAGCCCCTGTAACAAAAGACAAATTATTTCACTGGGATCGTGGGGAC	0.332

Series 2 — technique: competition protein-binding microarray; form: double-stranded DNA, one strand shown; matrix: in vitro; tested at: 2 µM; together with: Cbf1 competitor, 0.05 µM; direction: higher = stronger binding
Target: Phosphate system positive regulatory protein PHO4, full length, GST-tagged (PHO4, Saccharomyces cerevisiae, UniProt P07270, residues 1-312)
Setting: whole 60-bp probe, lowest competitor level
Target sequence (chain): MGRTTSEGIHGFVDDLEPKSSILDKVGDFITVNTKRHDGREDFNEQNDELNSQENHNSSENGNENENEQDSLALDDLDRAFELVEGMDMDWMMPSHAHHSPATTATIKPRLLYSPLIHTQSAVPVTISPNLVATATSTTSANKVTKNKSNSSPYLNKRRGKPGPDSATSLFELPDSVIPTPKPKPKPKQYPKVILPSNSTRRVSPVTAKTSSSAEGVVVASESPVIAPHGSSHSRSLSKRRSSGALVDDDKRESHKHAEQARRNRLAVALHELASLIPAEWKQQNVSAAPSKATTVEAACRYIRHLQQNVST
Oligonucleotide	fluorescence intensity
CCTGCCCAGACCCTCCACGTGGGCACAGCAGCCAGGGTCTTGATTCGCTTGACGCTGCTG	17500 a.u.
CTTTCGCTGGAAAAGCACGTCCTCGCTAAGAAATTTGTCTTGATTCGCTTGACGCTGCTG	6700 a.u.
GTCGTTAATAGAAGCCATGTGGAAAGATAAAGGGGCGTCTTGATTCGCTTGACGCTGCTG	8040 a.u.
TTCTAGCGCTTCCATCACGTGCTGTGGCGCTATGGTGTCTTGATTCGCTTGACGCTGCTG	17600 a.u.
CTAACGAAGGTTTTTCACGTGGCATACAAGCCAAGTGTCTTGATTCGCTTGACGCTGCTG	13300 a.u.
GTCTTGTCTCATTGGAGTGTGGGTGTCCCCACTTCAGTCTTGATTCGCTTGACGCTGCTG	5890 a.u.
AGAGTCATCGGCTTCACCGTGAGGTTTTTTCAAGTGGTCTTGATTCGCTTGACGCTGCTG	3920 a.u.
AATATGGCAGCCTCGCTGGTGTGCCACATAATATTAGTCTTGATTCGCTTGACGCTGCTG	4910 a.u.
GGTGTCCTCAAAGAATCTCAAGGTCCTAGCAGCTAAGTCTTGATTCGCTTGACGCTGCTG	3170 a.u.
TGCTGTAGAGTTCACCACGTGAGGTAAATATTGGGAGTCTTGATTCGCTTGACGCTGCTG	14900 a.u.
GTCTTGTCTCATTGGCGGGTGGGTGTCCCCACTTCAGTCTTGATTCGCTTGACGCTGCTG	5180 a.u.
GGCTATTATGCGATCATCGTGCAAAAATCGGTACTCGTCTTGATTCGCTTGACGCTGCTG	9150 a.u.
TGCGCAACAACTTGCCTAGTGGGTGTATGTCTAGAAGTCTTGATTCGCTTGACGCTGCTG	4400 a.u.
GGTTCTGTTTCGATGCACGCTAGATTACTCGAACCAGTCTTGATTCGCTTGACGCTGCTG	5760 a.u.

Series 3 — technique: Sort-seq; item: YFP reporter; matrix: E. coli; setting: PhoQ-PhoP variant library; together with: 10 µM Mg2+; reference: high Mg2+ state; direction: higher = stronger signaling
Substance: PhoQ, residues 284 288 289 292 302 303 SACGEM
target	fold induction
PhoP, residues 12 14 15 18 19 LHHYF (Escherichia coli, UniProt P23836)	30.7
PhoP, residues 12 14 15 18 19 NFFVT (Escherichia coli, UniProt P23836)	6.58
PhoP, residues 12 14 15 18 19 TPWTL (Escherichia coli, UniProt P23836)	1.36
PhoP, residues 12 14 15 18 19 VGHWL (Escherichia coli, UniProt P23836)	2.28

Series 4 — technique: protein binding microarray; form: double-stranded DNA, one strand shown; matrix: in vitro; tested at: not given; reference: not given; direction: higher = stronger binding
Target: Histone acetyltransferase KAT6A, both winged helices, GST fusion (KAT6A, Homo sapiens, UniProt Q92794, residues 1-181)
Setting: 8-mer, flanks averaged, mean of 2 arrays, mostly near background
Construct (chain): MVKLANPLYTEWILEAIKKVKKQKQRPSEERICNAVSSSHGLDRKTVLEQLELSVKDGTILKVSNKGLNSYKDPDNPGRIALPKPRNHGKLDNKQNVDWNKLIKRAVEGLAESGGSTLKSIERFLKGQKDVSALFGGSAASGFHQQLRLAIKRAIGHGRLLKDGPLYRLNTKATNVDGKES
Oligonucleotide	E-score
CTGACCCA	-0.197
GGACGGAA	0.178
CGCGACCC	0.175
CCTAGGAA	-0.139
CCGTTAAG	0.186
ATCTTTAC	-0.0165
ATCAAGGC	-0.177
TATAATCA	-0.124
TGCACACA	-0.113
AAGCTAGA	-0.217
GGGCCCAA	-0.245
CAAGTTGG	-0.16
GTCTTCAA	-0.232
ACGGATAG	0.171
CAATATCG	-0.0157
